# Assay results from different studies.
# Parts stem from different laboratories: compare values within a part only. Changes are numbered by the printed parent chain.

# Series 1
# Target: ABI1, truncated, D143A, DHFR fusion (Arabidopsis thaliana)
# Method: DHFR PCA, deep sequencing
# Medium: yeast
# Setting: methotrexate growth selection, single substitutions
# Together with: (+)-ABA 17 µM
# Baseline: wild-type fitted maximum
# Direction: higher = stronger binding
# Starting sequence: PYL1, truncated, DHFR fusion (Arabidopsis thaliana); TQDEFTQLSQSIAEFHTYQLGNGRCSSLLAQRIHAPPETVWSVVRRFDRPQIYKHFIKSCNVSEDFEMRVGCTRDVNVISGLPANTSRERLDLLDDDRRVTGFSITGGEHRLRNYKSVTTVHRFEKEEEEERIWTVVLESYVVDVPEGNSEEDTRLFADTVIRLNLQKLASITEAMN
Substitution,relative binding score [%]
H34Y,80
D3F,74.2
F66L,60.3
E4S,68
H16R,0.384
R132A,97.6
S171P,2.07
S59W,35.7
D97A,84.7
D65R,71.1
F157N,-21
V40G,-24.1
R132S,97.2
L8C,72.9
S11I,76.3
E129I,78.5
P83F,12.8

# Series 2
# Target: RNA binding protein fox-1 homolog 2, RRM domain, GST-SBP tag (RBFOX2, Homo sapiens, UniProt O43251-10, residues 100-194)
# Method: RNA Bind-n-Seq
# Form: RNA
# Medium: in vitro
# Concentration: 365 nM
# Setting: natural RNA segment, single round, ends assumed
# Baseline: no-protein control
# Direction: higher = stronger binding
# All sequences stand within: GGGAGUUCUACAGUCCGACGAUC … UGGAAUUCUCGGGUGCCAA
# Target sequence (chain): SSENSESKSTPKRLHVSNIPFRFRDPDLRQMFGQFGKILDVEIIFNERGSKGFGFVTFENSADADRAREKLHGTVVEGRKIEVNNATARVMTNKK
Oligonucleotide,RBNS enrichment (R)
UUUUCAGUCUCAAACUUUCUGCAUACUUUGCCUCCUUUAAAAGUUACAAAUAUUACAAAGUAAAAUCUAGCGUCAUAUCCAAUUCUUCCAAAUGACCUCUAUCAGCUGUU,0.878
UGAAGAAGUUCUAACUUUUAGCAUGCUGCACAGAAACUGGUAUAACAUGCCUUCAGUAUACUAACACUCAUAUGCUCAGUUUUGUUUUGUUUUGGCAGUUGACAAGAAGU,9.77
AAAUGGUAAUCAAGUGUGAUGUUUCUAUAAAAAUAAUUGAGAUUCACAUGUAAUAGACCCUUUAGCUUUAAUGAGCAGACAUGAGAAUGGUUUAUGAUCUUAAGUUGGUA,0.799
AUUGUUAUUUCUGAGACAGAGUCUUGCUCUGUAGCUCAGGCUGGAGUGCAGUGGCUCAAUCUCAGCUCACCACAACCUCUGCCUCCUGGCUUCAAGCGAUUCUUCUGCCU,0.174
CAGGAGAAACCGUGCCCAUUUAGAAGAUGGGGCAUUAACUUGUGUAACAGGACUUGGUAGUUUCCACCUAGGAAAACCGAGCUCUCUGGUGUGGUUCGCAGUACUGAGGG,0.361
CUGCCUUCUUUCCCUGUCCCAUGGGCACAGUCCUCACAGGGAGUGGCCUCCUCUCUCCAGUGAUGUAAGUGAAUGGAAGCCAUCACUGGCUGCACAUACCUUUUUCAAAA,0.532
GCCUCAUUAACACUCUUAACUCUGGGAUAGAACCCUAAGCAACAACAACAACAAAAGUGUCAUAUUUUAGAAGGCCUAGAGGUGACUCAUUUUAGAUAUAUAUACUUUGU,0.507
UCUCACUACUGAGCACCGAUGUGUAUGAUACUACAGACUAUAUUAAAGUGGAGUAACAUUUCUUUCAUCUUUGUUUACACUCUCACUAGGACUCUGAACCAUGAUUGGAA,0.33

# Series 3
# Target: Ras GTPase-activating protein-binding protein 1, full length (G3BP1, Homo sapiens, UniProt Q13283)
# Chain of UniProt Q13283 (whole entry, looked up): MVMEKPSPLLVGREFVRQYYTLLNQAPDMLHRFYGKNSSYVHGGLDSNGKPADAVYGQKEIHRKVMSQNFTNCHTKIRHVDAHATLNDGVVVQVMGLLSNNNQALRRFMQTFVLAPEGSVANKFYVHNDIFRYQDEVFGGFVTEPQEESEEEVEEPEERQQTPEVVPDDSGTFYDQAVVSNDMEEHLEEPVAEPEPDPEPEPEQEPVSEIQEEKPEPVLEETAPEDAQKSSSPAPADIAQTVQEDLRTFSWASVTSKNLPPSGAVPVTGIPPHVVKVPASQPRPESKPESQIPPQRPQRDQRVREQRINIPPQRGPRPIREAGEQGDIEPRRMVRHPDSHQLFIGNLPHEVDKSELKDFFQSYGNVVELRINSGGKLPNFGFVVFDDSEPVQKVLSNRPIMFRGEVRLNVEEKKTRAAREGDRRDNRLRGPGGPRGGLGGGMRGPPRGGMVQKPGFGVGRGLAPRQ
# Method: RNA Bind-n-Seq
# Form: RNA
# Medium: in vitro
# Concentration: 200 nM
# Setting: whole 134-nt RNA, ends assumed
# Together with: 150 mM KCl
# Baseline: input library
# Direction: higher = stronger binding
# All sequences stand within: GGGAGUUCUACAGUCCGACGAUC … UGGAAUUCUCGGGUGUCAAGG
Oligonucleotide,log2 enrichment
UAAGGCCAGUAAAAUUUUAGUACCUGGAGGUUUGACUCUAAUUUUUGCACUGAUGGUGCCAAAGGGCCCUGAGUCAAAAGGAUAGCCAAG,-2.11
AAGUCCUGUGCUACACAUCGUAUGUACCGAAUCGGUUUUUUUGGAGGUUUUUUUGGAAAGUAUUAUGUUACGCCGUUCGGAUCUGCACUU,-1.05
AGUCCUGUGCUACACAUCGUAUGUACCGAAUCGGGGUUUUUGGGGUUUGGGGAGGGGAAAGUAUUAUGUUACGCCGUUCGGAUCUGCACU,0.654
GCAGGGAGUAAAAACAAAUGGAAAUGCUUCGGAUAGUGGCAGGGGUGGGGGUUGCUAAGGAAAGGGUGGGAUGGGAGUGGGUAAAGAGUU,0.938
UCCUGUGCUACACAUCGUAUGUACCGAAUCGGGGAAAAAAGGGGAAAAAAGGAAAAAAGGAAAGUAUUAUGUUACGCCGUUCGGAUCUGC,-0.253
GUCCUGUGCUACACAUCGUAUGUACCGAAUCGGGGUUUGGGGAAAGGGGAAAAAGGGGAAAGUAUUAUGUUACGCCGUUCGGAUCUGCAC,0.38
CACAGACAACACGCACCCACACAGACACAGAGGGAAGGGGUUGGAAUGGGGACAGGGUGCACAGCAGGGCGGGGUAGGACCCCAGCCCCU,1.86
UCAAGUCCUGUGCUACACAUCGUAUGUACCGAAUCGGGGUUGGGGUUGGGUUGGGAAAGUAUUAUGUUACGCCGUUCGGAUCUGCACUUC,0.68
CUCAAGUCCUGUGCUACACAUCGUAUGUACCGAAUCGGGGAAGGGAAGGAAGGGAAAGUAUUAUGUUACGCCGUUCGGAUCUGCACUUCC,0.21

# Series 4
# Target: Histone acetyltransferase KAT6A, both winged helices, GST fusion (KAT6A, Homo sapiens, UniProt Q92794, residues 1-181)
# Method: protein binding microarray
# Form: double-stranded DNA, one strand shown
# Medium: in vitro
# Concentration: not given
# Setting: 8-mer, flanks averaged, mean of 2 arrays, mostly near background
# Baseline: not given
# Direction: higher = stronger binding
# Residues (chain): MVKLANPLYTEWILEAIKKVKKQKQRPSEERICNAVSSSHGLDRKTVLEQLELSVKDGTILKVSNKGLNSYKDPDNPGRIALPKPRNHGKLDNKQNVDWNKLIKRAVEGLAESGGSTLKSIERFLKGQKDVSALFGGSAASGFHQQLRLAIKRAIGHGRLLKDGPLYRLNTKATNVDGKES
Oligonucleotide,E-score
AAACTTGG,-0.0972
CCCGAGCA,-0.0934
TACGTATA,0.0957
AGCTAGAG,-0.088
CTTAAGCC,0.111
GCTATAAA,0.0621
TTCTGAAA,-0.0986
ATCGTCGA,-0.0741
ACAGAGGC,-0.0947
GTGGACAA,-0.046
CAGTGCTA,-0.0251
CCGTAGTA,0.14
CCCTCGAG,-0.179
CTCTGACA,-0.0612
CACGCTCA,0.0498
CGTTGTCC,0.00103
AATCGCGT,0.15
GAACCCCA,-0.189
CGGAAAGC,0.215
AACTATCT,-0.232
CAGATTGG,-0.263
GCCTACAC,-0.0845
GATCTACA,-0.125
